Experimental data gathered from unrelated publications.
A part holds a random share of what one study measured. Changes are numbered by the printed parent chain.
Chain of UniProt Q9ZTX8 (whole entry, looked up): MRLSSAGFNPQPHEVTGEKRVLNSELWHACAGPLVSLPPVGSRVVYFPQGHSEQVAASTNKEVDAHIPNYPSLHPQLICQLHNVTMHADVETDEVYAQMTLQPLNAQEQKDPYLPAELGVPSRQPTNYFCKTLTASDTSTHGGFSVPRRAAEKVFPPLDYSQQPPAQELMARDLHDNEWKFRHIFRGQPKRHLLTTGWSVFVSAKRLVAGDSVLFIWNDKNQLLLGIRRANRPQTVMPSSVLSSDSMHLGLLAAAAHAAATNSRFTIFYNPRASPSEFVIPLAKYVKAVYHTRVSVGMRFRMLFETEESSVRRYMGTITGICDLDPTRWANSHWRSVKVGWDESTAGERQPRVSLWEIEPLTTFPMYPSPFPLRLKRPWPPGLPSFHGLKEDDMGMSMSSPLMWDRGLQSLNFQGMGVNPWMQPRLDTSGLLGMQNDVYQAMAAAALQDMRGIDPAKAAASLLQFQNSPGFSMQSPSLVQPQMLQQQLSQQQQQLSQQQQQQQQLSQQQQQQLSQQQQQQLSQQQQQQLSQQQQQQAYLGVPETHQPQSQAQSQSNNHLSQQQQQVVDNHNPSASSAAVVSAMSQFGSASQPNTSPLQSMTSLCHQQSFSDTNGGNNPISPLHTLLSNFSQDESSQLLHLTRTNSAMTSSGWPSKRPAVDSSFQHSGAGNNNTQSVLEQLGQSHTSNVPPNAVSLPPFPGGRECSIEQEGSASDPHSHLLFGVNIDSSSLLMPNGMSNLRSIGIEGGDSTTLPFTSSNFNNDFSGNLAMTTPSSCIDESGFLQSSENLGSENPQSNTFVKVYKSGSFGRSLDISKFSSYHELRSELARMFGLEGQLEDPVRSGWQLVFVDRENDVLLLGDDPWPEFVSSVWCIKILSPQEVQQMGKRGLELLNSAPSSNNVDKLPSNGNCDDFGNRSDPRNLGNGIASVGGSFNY
Chain of UniProt Q93WC4 (whole entry, looked up): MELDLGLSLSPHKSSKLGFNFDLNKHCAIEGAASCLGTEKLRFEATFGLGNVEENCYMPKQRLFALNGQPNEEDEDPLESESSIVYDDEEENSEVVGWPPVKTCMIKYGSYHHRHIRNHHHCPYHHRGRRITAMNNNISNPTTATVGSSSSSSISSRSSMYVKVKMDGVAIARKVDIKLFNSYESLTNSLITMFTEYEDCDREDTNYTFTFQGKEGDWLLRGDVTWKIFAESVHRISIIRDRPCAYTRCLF

Set 1
Target: Hepatocyte nuclear factor 3-alpha (Foxa1, Mus musculus, UniProt P35582, residues 1-468, full length assumed)
Chain of UniProt P35582 (whole entry, looked up): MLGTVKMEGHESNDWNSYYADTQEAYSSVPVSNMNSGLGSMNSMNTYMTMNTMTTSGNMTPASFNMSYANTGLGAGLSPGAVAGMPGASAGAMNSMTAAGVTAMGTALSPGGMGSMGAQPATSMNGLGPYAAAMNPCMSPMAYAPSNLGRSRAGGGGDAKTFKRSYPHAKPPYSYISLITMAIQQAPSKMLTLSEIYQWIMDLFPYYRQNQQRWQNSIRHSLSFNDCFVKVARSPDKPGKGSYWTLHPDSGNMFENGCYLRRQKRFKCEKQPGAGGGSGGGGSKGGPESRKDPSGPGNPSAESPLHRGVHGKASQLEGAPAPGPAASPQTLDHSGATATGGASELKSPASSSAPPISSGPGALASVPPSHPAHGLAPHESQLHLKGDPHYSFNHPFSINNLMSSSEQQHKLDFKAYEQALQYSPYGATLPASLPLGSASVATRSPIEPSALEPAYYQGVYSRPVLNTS
Technique: EMSA with sequencing
Molecule type: double-stranded DNA, one strand shown
Sample: in vitro
Concentration: 10 and 20 nM
Setting: whole designed probe, mean of two concentrations, ends assumed
Relative to: negative control set to 0
Reading: higher = stronger binding
Endpoint: normalised bound fraction
Strand = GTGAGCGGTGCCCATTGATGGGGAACATCTTCCCCCTCTTCCTTGCCCCACCAGCTCACCTTCCCGGGTTATTTGCAGATAGGAAAATAAATAAAGCCGGCATTCGTTAACCCTCTTCTGGCGCAAACTGCTGTTTGCTCTGGATCTAACATGGTCCTTTGGCGAGGCGTGGCTCCGGGAGAGCAAAGCACCGTGTCAGGGCCATGATCCGGGCTCGCCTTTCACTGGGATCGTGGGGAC; result = 0.339 ratio
Strand = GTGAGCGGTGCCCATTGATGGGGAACCTCAGCAAGGCTTTAAGGTCCTTAAAACATGACCCACACTAACCAGCCTTAGGTTTCCACTGTCTCATAGCTCAGTTTCCACCAAAATGGGGAAAATTACCCAGAGATCTGTGCTCAGTTGGCTCTCTGCTTCTTGACTAGCTTCATTTACTGCCCATTGAAATTCTAACCCCAGGTCAAAAGCCATCTTTTCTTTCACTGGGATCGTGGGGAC; result = -0.0954 ratio
Strand = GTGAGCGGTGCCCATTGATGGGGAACCTTACCCAGATTCAGCTGTTTGTCTTGATTAGGCATTCTCCTGTGGCTGTAAACTTTTGATGACATTCAAGAGCTCCAATGAAGTTGATTCTGTGTTTGCCCATTTACATACTGTTTTTGTGAAGGGATGGAGTTGTGGAGTTCCCTACTCCACTACCTTCACTGACATTACTTCGTTTAAGTCCTTCATAAGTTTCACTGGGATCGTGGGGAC; result = 0.12 ratio
Strand = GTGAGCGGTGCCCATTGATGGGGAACAAAGATTTTTTTGACACCCTCAAGAAAGGAGATTAAAAATTATGACTGTTTGACATTTAAAAAAAAGCACTAGGAGGTATGTGCTGCTCAGCCGTGTTTACATAGTCATGTATTGTTTTGTTTAACCAAATTATGTAAATACAGTATTCTACATCTTTTATTTTGAGGTATATATTCATTGTCCTGTGATAAATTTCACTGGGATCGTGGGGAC; result = 0.483 ratio
Strand = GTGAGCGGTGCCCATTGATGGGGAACATCTTCCCCCTCTTCCTTGCCCCACCAGCTCACCTTCCCGGGTTATTTGCAGATAGGAAAATAAATAAAGCCGGCATTCGTTAACCCTCTTCACGCGCATACTGCCAGAGCAAACAGATCTAACGATGAATCATGGCGACGCCAGGCTCCGGGAGAGCAAAGCACCGTGTCAGGGCCATGATCCGGGGTGGCCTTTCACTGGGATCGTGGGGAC; result = 0.396 ratio
Strand = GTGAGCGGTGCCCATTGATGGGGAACTAGGAATTTGGTTAGCTCCCTAAATAACTTCTCTGCTTTCCTCATCTGCAATTAGCTAAATGGAAAGCAATCGTGATCTCAGGATAAGCCTCAAGATTACATTTGAGTTCAGACGCCCTCACCCGGTACCAAGACTGCAAAGCAGCCCCAAATACACCCTAACCCATCTTTCCAAGCATAAATCCTTTTGCTCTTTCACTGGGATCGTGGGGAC; result = -0.0612 ratio
Strand = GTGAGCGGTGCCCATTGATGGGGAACTTGCAGGCTGCAGTGATGTCCTTCATATCACGTCATCTTAGTGCCACTTCATCTTTATTGGCATGTGTGGGAGGAACAAAACCCCAGTGGTATGCAAACACCGTCATGGGGACTTGCTTCAAGCCATGGGAAGTTTCACGCAAAGCCAGTTTCTCAGTAGGGCAAATGTTGTGTAAAAGTACAAGAAGTTTGATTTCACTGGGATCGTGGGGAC; result = 0.149 ratio
Strand = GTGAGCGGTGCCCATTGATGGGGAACTCAACTCAGACTGCTTGAAAAAGGAATAGTGAGTTCAAAGATGCAAAGATGCCAGCGGCTGCATGTTACATTTTTGAGAGGTAGCCTTCAAAGTAAACAAGAAAAATGGGATTTTTTATGTTAATATGTGATTCATTTTAGAAAGAATGTTTCTTCGCTTAGTCTCTCCACATAAGATACTTACAGGTTTCCATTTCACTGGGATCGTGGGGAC; result = 0.313 ratio

Set 2
Target: ABI1, truncated, D143A, DHFR fusion (Arabidopsis thaliana)
Technique: DHFR PCA, deep sequencing
Sample: yeast
Setting: methotrexate growth selection, single substitutions
Added: (+)-ABA 0.11 µM
Relative to: wild-type fitted maximum
Reading: higher = stronger binding
Endpoint: relative binding score
Parent: PYL1, truncated, DHFR fusion (Arabidopsis thaliana); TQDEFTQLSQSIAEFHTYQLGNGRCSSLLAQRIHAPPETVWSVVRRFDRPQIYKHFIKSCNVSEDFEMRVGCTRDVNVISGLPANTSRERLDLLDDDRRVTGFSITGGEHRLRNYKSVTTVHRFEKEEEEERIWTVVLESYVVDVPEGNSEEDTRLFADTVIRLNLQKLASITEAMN; partner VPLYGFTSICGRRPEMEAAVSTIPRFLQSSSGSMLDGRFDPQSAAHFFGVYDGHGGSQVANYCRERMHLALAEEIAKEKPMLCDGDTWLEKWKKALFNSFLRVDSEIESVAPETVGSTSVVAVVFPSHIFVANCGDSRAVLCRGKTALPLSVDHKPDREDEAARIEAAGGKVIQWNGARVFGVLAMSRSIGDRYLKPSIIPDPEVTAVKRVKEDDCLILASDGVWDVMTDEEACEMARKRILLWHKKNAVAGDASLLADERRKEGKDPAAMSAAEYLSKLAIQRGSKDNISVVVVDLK
Change = H16R; result = 1.12%
Change = S117Y; result = -3.28%
Change = E125N; result = 21.5%
Change = I57Q; result = -0.846%
Change = S59W; result = 2.53%
Change = S171P; result = -0.658%
Change = D65R; result = 9.32%
Change = A175W; result = 4.45%
Change = R98C; result = -8.11%
Change = E129I; result = 8.24%
Change = E151F; result = 5.71%
Change = Q31D; result = -1.99%
Change = E152F; result = 1.14%
Change = T1N; result = 38%
Change = R132S; result = 60.8%
Change = L166N; result = -2.57%
Change = T135N; result = -2.39%
Change = G71I; result = 1.82%
Change = R69T; result = 30.5%
Change = S63G; result = 47.4%
Change = E4S; result = 12.1%
Change = E89P; result = -4.92%

Set 3
Target: CCND3, cyclin fold, Cln2 fusion (human)
Technique: yeast growth competition, sequencing
Sample: yeast
Setting: weak parent motif
Relative to: not given
Reading: higher = stronger binding
Endpoint: normalised enrichment score
Parent: DBF4B docking peptide (human); LGYLYLLLTQSLW; partner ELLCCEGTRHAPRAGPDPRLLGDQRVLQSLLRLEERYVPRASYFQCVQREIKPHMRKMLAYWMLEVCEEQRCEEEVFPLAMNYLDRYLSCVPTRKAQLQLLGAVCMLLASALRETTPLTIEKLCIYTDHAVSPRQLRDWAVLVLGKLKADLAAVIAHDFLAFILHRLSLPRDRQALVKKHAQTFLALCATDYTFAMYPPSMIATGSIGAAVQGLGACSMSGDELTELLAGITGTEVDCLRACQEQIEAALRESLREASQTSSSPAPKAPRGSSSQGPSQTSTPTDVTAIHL
Change = Y5A; result = -0.0338
Change = Y3A; result = -0.306
Change = L7A; result = 0.0778
Change = T9A; result = 0.0246
Change = G2A; result = -0.299
Change = L12A; result = -0.207

Set 4
Target: Fragile X messenger ribonucleoprotein 1, C-terminal low-complexity region (Fmr1, Mus musculus, UniProt P35922)
Technique: RNA Bind-n-Seq
Molecule type: RNA
Sample: in vitro
Concentration: 200 nM
Setting: whole 134-nt RNA, ends assumed
Added: 150 mM LiCl
Relative to: input library
Reading: higher = stronger binding
Endpoint: log2 enrichment
Library: 7-deaza-guanosine replaces G
Strand = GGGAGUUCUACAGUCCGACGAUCUCCUCAAGUCCUGUGCUACACAUCGUAUGUACCGAAUCGGAAAGGUGGAGGAAAGUAUUAUGUUACGCCGUUCGGAUCUGCACUUCCAGCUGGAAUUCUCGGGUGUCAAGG; result = -1.5
Strand = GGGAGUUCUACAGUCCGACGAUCACCAUGCAGGUGGGCAUCUUUGGGAAGUGGGGCAAGGGGGGGAUAGGGAGGGGGGUAACACUUUGGGAACAGGUGGUAAAAGGUCGUUUCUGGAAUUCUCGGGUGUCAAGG; result = 1.19
Strand = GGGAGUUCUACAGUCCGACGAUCGCAGGAAGUAAAAACAAAUGGAAAUGCUUCGGAUAGUGGCAGGGGUUGGGGUUGCUAAGGAAAGGGUGGGAUGGGAGUGGGUAAAGAGUUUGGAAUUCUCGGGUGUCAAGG; result = 1.4
Strand = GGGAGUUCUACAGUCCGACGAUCUGGCCCUGGUGGCAUGCGGGGAGGAAGAGGUGGCCUCACGGAUCGUGGUGGUCCCGGUGGAAUGUUCAGAGGUGGCCGUGGUGGAGACAGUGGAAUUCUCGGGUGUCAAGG; result = 0.0602
Strand = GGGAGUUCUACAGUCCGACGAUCCUCAAGUCCUGUGCUACACAUCGUAUGUACCGAAUCGGAAGGAAGGGGAAGGGAAAGUAUUAUGUUACGCCGUUCGGAUCUGCACUUCCAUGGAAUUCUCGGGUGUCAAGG; result = -0.246
Strand = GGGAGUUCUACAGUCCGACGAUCCAAGUCCUGUGCUACACAUCGUAUGUACCGAAUCGGUUUGGGUUUGGGUUUGGGGAAAGUAUUAUGUUACGCCGUUCGGAUCUGCACUUCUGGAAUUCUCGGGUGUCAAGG; result = -1.27
Strand = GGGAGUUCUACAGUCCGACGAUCUCAAGUCCUGUGCUACACAUCGUAUGUACCGAAUCGGGUUGGGUUGGGGUUGGGAAAGUAUUAUGUUACGCCGUUCGGAUCUGCACUUCCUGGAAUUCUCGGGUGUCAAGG; result = -1.08
Strand = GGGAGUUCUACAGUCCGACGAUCUGGCCCUGGUGGCAUGCGGGGAGGAAGAGGUGGCCUCAUGGAUCAUGGUGGUCCCGGUGGAAUGUUCAGAGGUGGCCGUGGUGGAGACAGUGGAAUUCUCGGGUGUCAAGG; result = -0.155
Strand = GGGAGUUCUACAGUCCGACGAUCGCAGGAAGUAAAAACGAAUGGAAAUGCUUCGGAUAGUGGCAGGGGUGGGGGUUGCUAAGGAAAGGGUGGGAUGGGAGUGGGUAAAGAGUUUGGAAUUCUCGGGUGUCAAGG; result = 1.41
Strand = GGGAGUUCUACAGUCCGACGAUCUCAAGUCCUGUGCUACACAUCGUAUGUACCGAAUCGGAAAGGAAAAAGGAAAGGAAAGUAUUAUGUUACGCCGUUCGGAUCUGCACUUCCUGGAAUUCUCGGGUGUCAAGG; result = -0.582
Strand = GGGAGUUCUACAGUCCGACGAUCUCAUUCUAUACAGCCUUUUGUUUCAUUAGGAUCAGGCAGCUAGAGACAUGAAGAGGCUUGAAGAAAAGGACAAGGAAAGAAAAAACGUAAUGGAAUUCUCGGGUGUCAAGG; result = -2.43

Mixed results
Molecule = IAA29 (Arabidopsis thaliana, UniProt Q93WC4); partner = ARF6 790-935 (Arabidopsis thaliana, UniProt Q9ZTX8); technique = two-hybrid; relative to = out of 4 tests; reading = higher = firmer interaction; endpoint = positive tests; result = 2
